Measured values gathered from unrelated publications.
A part holds a random share of what one study measured.
Sequence of UniProt P42336 (whole entry, unmodified, looked up): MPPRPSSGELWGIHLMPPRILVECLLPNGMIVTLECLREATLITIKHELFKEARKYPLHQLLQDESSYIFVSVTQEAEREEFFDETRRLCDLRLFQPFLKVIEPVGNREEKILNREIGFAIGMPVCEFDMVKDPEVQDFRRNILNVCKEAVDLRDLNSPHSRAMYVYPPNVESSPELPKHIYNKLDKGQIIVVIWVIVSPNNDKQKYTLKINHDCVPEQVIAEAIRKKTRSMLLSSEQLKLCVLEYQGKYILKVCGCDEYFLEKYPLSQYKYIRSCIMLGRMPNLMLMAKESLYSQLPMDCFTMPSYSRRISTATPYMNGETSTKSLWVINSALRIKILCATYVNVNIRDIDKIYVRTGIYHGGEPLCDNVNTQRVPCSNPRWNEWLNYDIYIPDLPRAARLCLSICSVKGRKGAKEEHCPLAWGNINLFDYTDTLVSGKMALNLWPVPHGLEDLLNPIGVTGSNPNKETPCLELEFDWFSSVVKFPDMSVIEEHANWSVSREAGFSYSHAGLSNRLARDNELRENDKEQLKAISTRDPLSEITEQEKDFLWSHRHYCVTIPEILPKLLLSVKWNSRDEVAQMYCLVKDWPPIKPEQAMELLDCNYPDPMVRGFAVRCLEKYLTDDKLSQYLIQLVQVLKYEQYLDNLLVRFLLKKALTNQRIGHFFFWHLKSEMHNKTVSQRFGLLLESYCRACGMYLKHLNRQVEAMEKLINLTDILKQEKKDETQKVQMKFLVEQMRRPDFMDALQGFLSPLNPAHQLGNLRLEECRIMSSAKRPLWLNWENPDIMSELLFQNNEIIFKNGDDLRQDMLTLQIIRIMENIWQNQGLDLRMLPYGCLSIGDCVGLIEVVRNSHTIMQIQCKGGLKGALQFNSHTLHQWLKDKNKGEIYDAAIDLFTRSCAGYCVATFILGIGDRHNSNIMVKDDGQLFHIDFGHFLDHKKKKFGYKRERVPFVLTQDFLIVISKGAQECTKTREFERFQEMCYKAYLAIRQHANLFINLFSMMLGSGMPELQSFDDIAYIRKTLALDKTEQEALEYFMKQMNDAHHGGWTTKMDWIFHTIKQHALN
Sequence of UniProt Q9UL54 (whole entry, looked up): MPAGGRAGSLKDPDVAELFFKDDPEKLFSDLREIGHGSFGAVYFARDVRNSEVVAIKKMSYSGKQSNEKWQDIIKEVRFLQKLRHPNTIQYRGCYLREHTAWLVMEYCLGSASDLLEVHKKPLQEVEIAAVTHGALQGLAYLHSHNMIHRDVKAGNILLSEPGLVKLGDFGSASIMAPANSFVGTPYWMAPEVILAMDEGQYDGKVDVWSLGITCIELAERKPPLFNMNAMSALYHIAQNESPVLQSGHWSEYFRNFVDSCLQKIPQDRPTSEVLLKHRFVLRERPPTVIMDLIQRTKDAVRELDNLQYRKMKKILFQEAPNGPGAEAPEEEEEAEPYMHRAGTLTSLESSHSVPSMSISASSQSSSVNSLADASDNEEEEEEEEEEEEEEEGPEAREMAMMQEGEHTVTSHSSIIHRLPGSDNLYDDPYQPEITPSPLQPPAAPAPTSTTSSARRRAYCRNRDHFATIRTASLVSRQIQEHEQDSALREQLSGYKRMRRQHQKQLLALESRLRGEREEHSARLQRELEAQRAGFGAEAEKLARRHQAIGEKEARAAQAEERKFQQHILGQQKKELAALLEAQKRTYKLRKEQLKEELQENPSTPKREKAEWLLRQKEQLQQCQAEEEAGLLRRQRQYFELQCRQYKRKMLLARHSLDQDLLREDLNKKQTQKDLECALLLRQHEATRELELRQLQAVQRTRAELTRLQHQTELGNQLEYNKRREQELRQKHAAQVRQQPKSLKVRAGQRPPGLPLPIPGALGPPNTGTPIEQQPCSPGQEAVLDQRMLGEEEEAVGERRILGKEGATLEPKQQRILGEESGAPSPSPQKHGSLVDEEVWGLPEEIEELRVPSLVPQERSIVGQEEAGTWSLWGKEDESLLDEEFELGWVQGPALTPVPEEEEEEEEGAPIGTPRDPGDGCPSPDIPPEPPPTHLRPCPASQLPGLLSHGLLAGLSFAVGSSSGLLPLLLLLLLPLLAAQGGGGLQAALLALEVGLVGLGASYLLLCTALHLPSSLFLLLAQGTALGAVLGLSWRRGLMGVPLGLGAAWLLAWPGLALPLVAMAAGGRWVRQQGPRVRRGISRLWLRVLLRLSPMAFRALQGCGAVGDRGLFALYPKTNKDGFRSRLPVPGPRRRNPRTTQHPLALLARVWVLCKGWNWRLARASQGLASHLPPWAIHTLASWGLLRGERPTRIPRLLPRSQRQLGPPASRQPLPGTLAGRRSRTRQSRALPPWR
Sequence of UniProt Q15349 (whole entry, looked up): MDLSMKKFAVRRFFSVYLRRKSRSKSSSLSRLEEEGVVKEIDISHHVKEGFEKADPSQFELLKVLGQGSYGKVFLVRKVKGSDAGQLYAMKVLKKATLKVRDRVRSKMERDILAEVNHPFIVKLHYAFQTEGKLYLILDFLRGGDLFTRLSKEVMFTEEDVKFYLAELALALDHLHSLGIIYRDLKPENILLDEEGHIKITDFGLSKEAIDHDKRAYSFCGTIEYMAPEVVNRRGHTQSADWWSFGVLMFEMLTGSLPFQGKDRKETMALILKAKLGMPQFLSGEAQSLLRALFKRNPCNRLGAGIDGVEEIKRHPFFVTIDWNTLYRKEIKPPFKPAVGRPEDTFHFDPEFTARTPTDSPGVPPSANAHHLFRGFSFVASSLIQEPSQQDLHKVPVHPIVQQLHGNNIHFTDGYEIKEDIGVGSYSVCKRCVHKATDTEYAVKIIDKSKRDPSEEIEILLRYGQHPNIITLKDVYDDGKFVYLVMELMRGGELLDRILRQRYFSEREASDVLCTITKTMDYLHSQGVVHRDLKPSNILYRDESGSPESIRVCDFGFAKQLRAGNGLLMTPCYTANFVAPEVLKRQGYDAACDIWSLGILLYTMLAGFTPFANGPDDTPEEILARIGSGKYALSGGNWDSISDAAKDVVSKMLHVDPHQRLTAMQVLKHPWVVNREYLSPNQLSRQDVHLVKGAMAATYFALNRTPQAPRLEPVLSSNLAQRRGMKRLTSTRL
Sequence of UniProt P27361 (whole entry, looked up): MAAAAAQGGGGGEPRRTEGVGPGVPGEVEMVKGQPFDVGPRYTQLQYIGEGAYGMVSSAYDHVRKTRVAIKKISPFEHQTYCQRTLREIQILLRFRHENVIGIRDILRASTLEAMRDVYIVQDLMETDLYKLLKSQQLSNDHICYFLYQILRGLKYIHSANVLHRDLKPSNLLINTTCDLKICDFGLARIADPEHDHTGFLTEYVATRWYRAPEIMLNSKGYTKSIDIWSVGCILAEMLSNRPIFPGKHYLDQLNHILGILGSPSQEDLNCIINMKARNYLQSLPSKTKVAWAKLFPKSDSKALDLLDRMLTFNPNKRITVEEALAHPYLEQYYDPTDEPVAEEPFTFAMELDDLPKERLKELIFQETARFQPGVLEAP
Sequence of UniProt P42685 (whole entry, looked up): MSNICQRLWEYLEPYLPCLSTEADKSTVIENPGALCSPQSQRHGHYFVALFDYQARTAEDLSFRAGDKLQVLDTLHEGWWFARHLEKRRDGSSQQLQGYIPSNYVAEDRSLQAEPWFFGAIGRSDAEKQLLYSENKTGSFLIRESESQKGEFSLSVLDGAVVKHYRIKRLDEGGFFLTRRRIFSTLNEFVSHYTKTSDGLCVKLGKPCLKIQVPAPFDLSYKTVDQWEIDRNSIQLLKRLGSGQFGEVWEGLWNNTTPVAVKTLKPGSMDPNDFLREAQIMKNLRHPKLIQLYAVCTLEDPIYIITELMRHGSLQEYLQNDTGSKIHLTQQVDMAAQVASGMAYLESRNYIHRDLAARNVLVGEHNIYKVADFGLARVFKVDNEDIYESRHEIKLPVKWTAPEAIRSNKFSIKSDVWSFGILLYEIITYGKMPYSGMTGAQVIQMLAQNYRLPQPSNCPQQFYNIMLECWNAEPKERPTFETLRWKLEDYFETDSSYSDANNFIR

Sample 1 — Compound: CC(C)n1cnc2c(Nc3cccc(Cl)c3)nc(NCCO)nc21; effect on: enzyme activity; mode: inhibitor; tested at: 0.5 µM; relative to: control
target | remaining activity [%]
TAOK2 (Homo sapiens, UniProt Q9UL54) | 97.2
FRK (Homo sapiens, UniProt P42685) | 94.2
EPHA3 (Homo sapiens, UniProt P29320) | 90.3
ULK2 (Homo sapiens, UniProt Q8IYT8) | 89
CSNK1G2 (Homo sapiens, UniProt P78368) | 20.6
MAPK3 (Homo sapiens, UniProt P27361) | 111
FGFR1 (Homo sapiens, UniProt P11362) | 84.2
RPS6KA2 (Homo sapiens, UniProt Q15349) | 62.1
ABL2 (Homo sapiens, UniProt P42684) | 60.7
MAPKAPK2 (Homo sapiens, UniProt P49137) | 98.9
NEK6 (Homo sapiens, UniProt Q9HC98) | 101
LCK (Homo sapiens, UniProt P06239) | 84.9
NEK1 (Homo sapiens, UniProt Q96PY6) | 90.4

Sample 2 — method: protein-binding microarray; molecule type: double-stranded DNA, one strand shown; sample: in vitro; tested at: not given; direction: higher = stronger binding
Target: Hepatocyte nuclear factor 3-beta, forkhead domain (FOXA2, Homo sapiens, UniProt Q9Y261, residues 142-269)
Notes: k-mer, scored over probes, only values ≥0.25
Construct (chain): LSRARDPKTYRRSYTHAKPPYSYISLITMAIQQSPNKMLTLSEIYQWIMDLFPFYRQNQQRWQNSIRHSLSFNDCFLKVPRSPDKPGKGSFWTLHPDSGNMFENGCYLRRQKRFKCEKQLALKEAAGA
Strand | E-score
ATACAGAC | 0.359
ACAAATCC | 0.271
TGAATACA | 0.268
CAAATGTA | 0.278
AATATAGA | 0.299
CTTGTAAC | 0.361
ATGTAAAC | 0.378
ATTAAATG | 0.301

Sample 3 — method: universal PBM; molecule type: double-stranded DNA, one strand shown; sample: in vitro; tested at: 600 nM; direction: higher = stronger binding
Target: Sal-like protein 4, full length isoform A (SALL4, Homo sapiens, UniProt Q9UJQ4, residues 1-1053)
Sequence of UniProt Q9UJQ4 (whole entry, looked up): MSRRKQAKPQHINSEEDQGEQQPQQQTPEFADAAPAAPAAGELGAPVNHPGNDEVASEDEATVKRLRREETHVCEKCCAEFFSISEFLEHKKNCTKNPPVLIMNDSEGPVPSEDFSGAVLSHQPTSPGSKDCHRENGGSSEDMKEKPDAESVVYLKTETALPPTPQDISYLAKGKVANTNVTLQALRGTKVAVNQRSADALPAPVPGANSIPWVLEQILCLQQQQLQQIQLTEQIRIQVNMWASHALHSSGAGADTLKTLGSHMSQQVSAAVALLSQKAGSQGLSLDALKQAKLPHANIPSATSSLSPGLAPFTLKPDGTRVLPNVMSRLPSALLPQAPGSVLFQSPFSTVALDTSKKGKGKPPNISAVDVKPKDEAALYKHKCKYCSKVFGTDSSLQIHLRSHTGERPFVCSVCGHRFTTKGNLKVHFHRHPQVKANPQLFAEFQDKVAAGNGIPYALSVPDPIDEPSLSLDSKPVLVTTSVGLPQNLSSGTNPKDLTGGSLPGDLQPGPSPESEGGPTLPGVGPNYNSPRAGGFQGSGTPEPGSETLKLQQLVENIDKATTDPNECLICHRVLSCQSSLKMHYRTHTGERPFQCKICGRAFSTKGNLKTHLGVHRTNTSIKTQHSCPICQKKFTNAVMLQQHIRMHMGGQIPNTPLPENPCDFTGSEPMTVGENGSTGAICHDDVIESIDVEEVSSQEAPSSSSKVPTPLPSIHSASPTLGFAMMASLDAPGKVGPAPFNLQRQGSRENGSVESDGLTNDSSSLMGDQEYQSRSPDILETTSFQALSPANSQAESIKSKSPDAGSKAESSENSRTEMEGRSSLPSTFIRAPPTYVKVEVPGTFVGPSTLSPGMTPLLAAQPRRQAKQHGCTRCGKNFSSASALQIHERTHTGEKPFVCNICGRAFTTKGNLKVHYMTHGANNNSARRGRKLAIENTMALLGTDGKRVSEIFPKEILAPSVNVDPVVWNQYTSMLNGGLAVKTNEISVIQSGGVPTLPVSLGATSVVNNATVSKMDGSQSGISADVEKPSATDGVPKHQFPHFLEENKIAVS
Notes: 8-mer, flanks averaged, mean of replicates
Strand | E-score
AGAATAGG | 0.158
AAACCCGC | -0.241
ATAACGAT | 0.137
AGTTTCGG | -0.101
ATCACGAA | 0.137
AAAGACAA | 0.199
CAATACAC | 0.259
CAACCACC | -0.206

Sample 4 — tested at: 1 µM
SMILES: COc1cccc(CNC(=O)c2nc3scc(COCc4ccc(C(=O)O)cc4)c3c(=O)[nH]2)c1
target | effect on | method | remaining binding [%]
PRPF4B (Homo sapiens, UniProt Q13523) | cell-free assay | competition with immobilised ligand | 97.3
PTK2B (Homo sapiens, UniProt Q14289) | cell-free assay | competition with immobilised ligand | 85.3
PIM1 (Homo sapiens, UniProt P11309) | cell-free assay | competition with immobilised ligand | 100
DAPK1 (Homo sapiens, UniProt P53355) | cell-free assay | competition with immobilised ligand | 100
CDC42BPA (Homo sapiens, UniProt Q5VT25) | cell-free assay | competition with immobilised ligand | 100
IGF1R (Homo sapiens, UniProt P08069) | cell-free assay | competition with immobilised ligand | 100
PIK3CA (Homo sapiens, UniProt P42336, E545A) | cell-free assay | competition with immobilised ligand | 89.2
BRAF (Homo sapiens, UniProt P15056) | cell-free assay | competition with immobilised ligand | 72.8
PIK3CB (Homo sapiens, UniProt P42338) | cell-free assay | competition with immobilised ligand | 54.8
ACVR2B (Homo sapiens, UniProt Q13705) | cell-free assay | competition with immobilised ligand | 100
Tyrosine-protein kinase ABL1, non-phosphorylated (ABL1, Homo sapiens, UniProt P00519, T315I) | cell-free assay | competition with immobilised ligand | 92
MAP4K3 (Homo sapiens, UniProt Q8IVH8) | cell-free assay | competition with immobilised ligand | 99.8
PIK3CA (Homo sapiens, UniProt P42336, H1047L) | cell-free assay | competition with immobilised ligand | 100
FLT3 (Homo sapiens, UniProt P36888, N841I) | cell-free assay | competition with immobilised ligand | 100
GRK2 (Homo sapiens, UniProt P25098) | cell-free assay | competition with immobilised ligand | 50.1
Tyrosine-protein kinase ABL1, phosphorylated (ABL1, Homo sapiens, UniProt P00519, F317I) | binding |  | 62.4

A few entries again (sample 2):
Strand | E-score
ACAAATCC | 0.271
TGAATACA | 0.268
ATTAAATG | 0.301
AATATAGA | 0.299
CTTGTAAC | 0.361
ATGTAAAC | 0.378
CAAATGTA | 0.278
